{"data": "Assay results pooled from the literature", "note": "Lines come from different studies, so protocols differ. ± gives the spread as reported.", "chain of UniProt P08235 (whole entry, looked up)": "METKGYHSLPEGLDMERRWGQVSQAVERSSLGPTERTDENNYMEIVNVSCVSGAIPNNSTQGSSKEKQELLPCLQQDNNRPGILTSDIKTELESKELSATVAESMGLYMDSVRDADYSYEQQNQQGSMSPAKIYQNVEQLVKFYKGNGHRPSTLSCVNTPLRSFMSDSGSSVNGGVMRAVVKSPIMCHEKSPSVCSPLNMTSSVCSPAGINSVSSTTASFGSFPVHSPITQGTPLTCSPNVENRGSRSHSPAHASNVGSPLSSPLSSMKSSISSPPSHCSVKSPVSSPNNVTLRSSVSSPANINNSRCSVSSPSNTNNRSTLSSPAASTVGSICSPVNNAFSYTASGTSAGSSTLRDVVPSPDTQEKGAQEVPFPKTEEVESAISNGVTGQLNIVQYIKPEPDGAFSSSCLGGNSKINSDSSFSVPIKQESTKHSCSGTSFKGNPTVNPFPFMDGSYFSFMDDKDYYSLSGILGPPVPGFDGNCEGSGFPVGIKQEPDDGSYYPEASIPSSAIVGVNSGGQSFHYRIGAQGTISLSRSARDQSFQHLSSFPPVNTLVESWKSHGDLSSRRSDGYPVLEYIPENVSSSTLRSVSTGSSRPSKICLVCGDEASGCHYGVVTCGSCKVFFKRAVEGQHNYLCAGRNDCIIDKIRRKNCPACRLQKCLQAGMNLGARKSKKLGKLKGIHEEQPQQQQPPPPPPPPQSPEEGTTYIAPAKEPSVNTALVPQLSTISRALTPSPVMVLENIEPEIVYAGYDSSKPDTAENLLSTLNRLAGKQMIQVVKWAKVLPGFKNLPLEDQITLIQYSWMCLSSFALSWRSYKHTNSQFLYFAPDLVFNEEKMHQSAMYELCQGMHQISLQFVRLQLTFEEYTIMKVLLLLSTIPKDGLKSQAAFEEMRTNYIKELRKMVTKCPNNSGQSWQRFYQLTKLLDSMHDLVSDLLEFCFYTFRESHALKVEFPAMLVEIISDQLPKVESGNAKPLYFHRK"}
{"Structure (SMILES)": "CC[C@H](C)[C@H](NC(=O)[C@H](Cc1ccccc1)NC(=O)[C@H](CCC(=O)O)NC(=O)[C@H](CCCNC(=N)N)NC(=O)[C@H](C)NC(=O)[C@H](C)NC(=O)[C@H](CCC(N)=O)NC(=O)[C@H](CCC(=O)O)NC(=O)[C@H](CCC(=O)O)NC(=O)[C@H](CC(C)C)NC(=O)[C@H](Cc1ccc(O)cc1)NC(=O)[C@H](CO)NC(=O)[C@H](CO)NC(=O)[C@@H](NC(=O)[C@H](CC(=O)O)NC(=O)[C@H](CO)NC(=O)[C@@H](NC(=O)[C@H](Cc1ccccc1)NC(=O)[C@@H](NC(=O)CNC(=O)[C@H](CCC(=O)O)NC(=O)[C@H](C)NC(=O)CCc1c[nH]cn1)[C@@H](C)O)[C@@H](C)O)C(C)C)C(=O)N[C@@H](C)C(=O)N[C@@H](Cc1c[nH]c2ccccc12)C(=O)N[C@@H](CC(C)C)C(=O)N[C@H](C(=O)N[C@@H](CCCNC(=N)N)C(=O)NCC(=O)N[C@@H](CCCNC(=N)N)C(=O)N[C@@H](CCCCNC(=O)COCCOCCNC(=O)COCCOCCNC(=O)CC[C@H](NC(=O)CCCCCCCCCCCCCCCCC(=O)O)C(=O)O)C(=O)NCC(=O)NCC(=O)N[C@@H](CO)C(=O)N[C@@H](CCCCNc1c(NCCCCCN(O)C(=O)CCC(=O)NCCCCCN(O)C(=O)CCC(=O)NCCCCCN(O)C(C)=O)c(=O)c1=O)C(=O)O)C(C)C [zirconium-89 labelled]", "test system": "rat, colon", "conditions": "iv, 3 nmol/kg, 4 h, ex vivo", "measurement": "tissue uptake", "value": "0.43 %ID/g"}
{"Structure (SMILES)": "COc1ncnn2ccc(-c3cnc4nc(C)n(Cc5nnc([C@@H](C)F)o5)c4c3)c12", "test system": "human patients", "conditions": "oral, dose not given, grade 1 adverse drug reaction", "measurement": "incidence of Pyrexia", "value": "7.1%"}
{"Structure (SMILES)": "CO[C@H]1C[C@@H]2CC[C@@H](C)[C@@](O)(O2)C(=O)C(=O)N2CCCC[C@H]2C(=O)O[C@H]([C@H](C)C[C@@H]2CC[C@@H](OC(=O)NCCOCCOCCOCCOCCOCCOCCOCCOCCC(=O)N3CCc4cc(Cn5nc(-c6ccc7oc(N)nc7c6)c6c(N)ncnc65)ccc4C3)[C@H](OC)C2)C[C@@H](O)[C@H](C)/C=C(\\C)[C@@H](O)[C@@H](OC)C(=O)[C@H](C)C[C@H](C)/C=C/C=C/C=C/1C", "test system": "patients with advanced solid tumours", "conditions": "intravenous, 16 mg weekly, grade 3 or higher", "measurement": "abdominal pain incidence", "value": "0%"}
{"Structure (SMILES)": "N[C@@H]1c2ccccc2OC12CCN(c1cnc3c(N4CCCc5ncccc54)n[nH]c3n1)CC2", "test system": "advanced metastatic solid tumour patients", "conditions": "oral, 40 mg once daily, cycle 1, 21 days", "measurement": "dose-limiting toxicity", "value": "0%"}
{"Structure (SMILES)": "N=C(N)NCCC[C@@H](NC(=O)[C@@H](N)Cc1ccccc1)C(=O)N[C@@H](Cc1ccccc1)C(=O)N[C@@H](CCCCN)C(N)=O", "test system": "early Huntington's disease patients, plasma", "conditions": "subcutaneous, 5 mg daily, day 7, median", "measurement": "apparent volume of distribution", "value": "24 L"}
{"Structure (SMILES)": "CN1CC[C@@H](c2c(O)cc(O)c3c(=O)cc(-c4ccc(C(F)(F)F)cc4Cl)oc23)[C@@H]1CO", "assay": "item: Epistaxis", "test system": "B-cell malignancies", "conditions": "oral, 100 mg, intermittent dosing", "measurement": "patients with adverse event", "value": "0%"}
{"Structure (SMILES)": "COc1ccc(N2C(=O)N(c3c(C)cccc3Cl)Cc3cnc(Nc4ccc(C5CCN(C)CC5)cc4OC)nc32)nc1", "tested on": "RAF1 (Homo sapiens, UniProt P04049)", "assay": "kinase activity, inhibitor", "conditions": "0.5 µM, kinase CRAF", "measurement": "inhibition", "value": "14%"}
{"Structure (SMILES)": "O=C1c2c(O)c(=O)ccn2N([C@@H]2c3ccccc3SCc3c2ccc(F)c3F)[C@@H]2COCCN12", "test system": "BALB/c mouse", "conditions": "subcutaneous, 0.5 mg/kg q12h", "measurement": "Cmax", "value": "36.6 ng/mL"}
{"Structure (SMILES)": "CC(C)n1c(C2CCNCC2)nc2c([N+](=O)[O-])c(Br)c(Br)cc21", "assay": "item: Pneumonia", "test system": "AML patients", "conditions": "125 mg", "measurement": "adverse events causing discontinuation", "value": "2%"}
{"Structure (SMILES)": "COc1cc(-c2[o+]c3cc(O)cc(O)c3cc2O[C@@H]2O[C@H](CO)[C@@H](O)[C@H](O)[C@H]2O)cc(OC)c1O", "test system": "buffer without protein", "conditions": "50 µM, pH 7", "measurement": "absorption maximum", "value": "571 nm"}
{"Structure (SMILES)": "COc1cc(Nc2ncc(F)c(Nc3ccc4c(n3)NC(=O)C(C)(C)O4)n2)cc(OC)c1OC", "tested on": "NR3C2 (Homo sapiens, UniProt P08235)", "measurement": "IC50", "value": "> 10 µM"}
{"Structure (SMILES)": "CC(C)C[C@@H]1NC(=O)[C@H](CC(C)C)NC(=O)[C@H](Cc2c[nH]c3ccccc23)NC(=O)[C@H](CO)NC(=O)[C@H](Cc2c[nH]c3ccccc23)NC(=O)[C@@H]2CCCN2C(=O)[C@H](CC(C)C)NC(=O)[C@H](Cc2c[nH]cn2)NC(=O)[C@@H]2CCCN2C(=O)[C@H](CC(N)=O)NC(=O)[C@H](C)NC(=O)[C@H](Cc2ccc(O)cc2)NC(=O)[C@H](CS)NC(=O)[C@H](CCCCNC(=O)CN2CCN(CC(=O)O)CCN(CC(=O)O)CCN(CC(=O)O)CC2)NC1=O [lutetium-177 labelled]", "test system": "Balb/c mouse, female, 4T1 tumour, lung", "conditions": "intravenous, 3.7 MBq, 24 h", "measurement": "tissue uptake", "value": "0.03 %ID"}
{"Structure (SMILES)": "COc1ncccc1-c1cnn2ccc(N3CCN(C(=O)OC(C)C)CC3)nc12", "test system": "rat, thermal hyperalgesia model, plasma", "conditions": "oral, 1 mg/kg, 180 min", "measurement": "free drug concentration", "value": "1.1 nM"}
{"Structure (SMILES)": "C[C@@H](O)[C@@H](CO)NC(=O)[C@@H](CCCNC(=N)N)NC(=O)[C@@H]1CCCN1C(=O)[C@@H]1CSSC[C@H](NC(=O)[C@H](Cc2ccccc2)NC(=O)CN2CCN(CC(=O)O)CCN(CC(=O)O)CCN(CC(=O)O)CC2)C(=O)N[C@@H](Cc2ccc(O)cc2)C(=O)N[C@@H](Cc2ccccc2)C(=O)N[C@@H](CCC(N)=O)C(=O)N[C@@H](CC(N)=O)C(=O)N1 [gallium-68 labelled]", "test system": "healthy Wistar rat, thyroid", "conditions": "intravenous, 8 MBq, 120 min, individual animals", "measurement": "tissue uptake", "value": "0.02 %ID/g"}
{"Structure (SMILES)": "C[C@@H]1OC(=O)NN=C1c1ccc(-c2ccc(F)cc2)c(C(F)(F)F)c1", "assay": "phase I trial, item: Ascites worst grade 2", "test system": "human patients", "conditions": "5 mg loading then 0.25 mg daily", "measurement": "patients with adverse event", "value": "0%"}
{"Structure (SMILES)": "Cn1c(-c2ccc(C(N)=O)cc2F)nnc1C(C)(C)Oc1c(F)cc(Cl)cc1F", "test system": "human", "conditions": "oral, 30 mg, single ascending dose", "measurement": "nervous system disorder TEAE", "value": "16.7%"}
{"Structure (SMILES)": "O=C(c1ccc(F)c(F)c1Nc1ccc(I)cc1F)N1CC(O)([C@@H]2CCCCN2)C1", "test system": "human patients", "conditions": "oral, dose not given, dose escalation, suspension", "measurement": "fatal adverse events", "value": "0%"}
{"Structure (SMILES)": "C[C@H]1CN(c2n[nH]c3nc(N[C@H]4CC[C@H](NS(=O)(=O)CCC(F)(F)F)CC4)ncc23)CCO1", "tested on": "ATP1A1 (Homo sapiens, UniProt P05023)", "assay": "inhibitor, Kinobeads competition profiling", "conditions": "0.8 µM", "how to read": "reference: vehicle", "measurement": "relative abundance", "value": 1.49}
{"Structure (SMILES)": "C[C@]1(CO)Cc2ncn(-c3ccc(C#N)c(Cl)c3)c2C(=O)O1", "test system": "human", "conditions": "40 mg multiple doses, fasted", "measurement": "subjects with drug-related urine abnormality", "value": "0%"}
{"Structure (SMILES)": "CCc1ccc(CC/C=C/c2ccc3c(c2)C(=O)CC3)cc1", "test system": "Sprague-Dawley rat, female, blood", "conditions": "oral, 450 mg/kg/day, 14 days", "measurement": "hematocrit", "value": "46.3%"}
{"Structure (SMILES)": "COc1cc2c(Oc3ccc4[nH]c(C)cc4c3F)ccnc2cc1OCC1(N)CC1", "test system": "paediatric recurrent refractory sarcoma", "conditions": "10 mg", "measurement": "grade 1 or 2 Hyperthyroidism", "value": "0%"}
{"Structure (SMILES)": "CC(C)[C@@H]1NC(=O)CNC(=O)[C@H](CC(N)=O)NC(=O)[C@H](CCCNC(=N)N)NC(=O)[C@H](Cc2ccc(O)cc2)NC(=O)[C@H](C(C)C)NC(=O)[C@@H](NC(=O)[C@@H](NC(=O)[C@H](CC(N)=O)NC(=O)[C@H](Cc2c[nH]c3ccccc23)NC(=O)[C@H](C)NC(=O)[C@H](Cc2ccccc2)NC(=O)CN)C(C)C)CSSC[C@@H](C(=O)N[C@@H](Cc2cnc[nH]2)C(=O)N[C@@H](CCCNC(=N)N)C(=O)N[C@@H](CCCNC(=N)N)C(=O)N[C@@H](C)C(=O)N[C@@H](CC(N)=O)C(N)=O)NC(=O)[C@H](C(C)C)NC(=O)[C@H](CCCNC(=N)N)NC1=O", "test system": "ICR mice, blood", "conditions": "intraperitoneal, 5 mg/kg, day 5", "measurement": "lymphocytes", "value": "76.46 ± 0.69%"}
{"note": "Excerpt of the above:"}
{"Structure (SMILES)": "O=C1c2c(O)c(=O)ccn2N([C@@H]2c3ccccc3SCc3c2ccc(F)c3F)[C@@H]2COCCN12", "test system": "BALB/c mouse", "conditions": "subcutaneous, 0.5 mg/kg q12h", "measurement": "Cmax", "value": "36.6 ng/mL"}
{"Structure (SMILES)": "C[C@@H](O)[C@@H](CO)NC(=O)[C@@H](CCCNC(=N)N)NC(=O)[C@@H]1CCCN1C(=O)[C@@H]1CSSC[C@H](NC(=O)[C@H](Cc2ccccc2)NC(=O)CN2CCN(CC(=O)O)CCN(CC(=O)O)CCN(CC(=O)O)CC2)C(=O)N[C@@H](Cc2ccc(O)cc2)C(=O)N[C@@H](Cc2ccccc2)C(=O)N[C@@H](CCC(N)=O)C(=O)N[C@@H](CC(N)=O)C(=O)N1 [gallium-68 labelled]", "test system": "healthy Wistar rat, thyroid", "conditions": "intravenous, 8 MBq, 120 min, individual animals", "measurement": "tissue uptake", "value": "0.02 %ID/g"}
